Experimental data collected from several papers.
Numbered parts are unrelated; each lists some results of a single study. “And” joins repeats or separate records; there may be more than shown. Substitutions count along the parent as printed.
UniProt P28221, sequence (whole entry, looked up): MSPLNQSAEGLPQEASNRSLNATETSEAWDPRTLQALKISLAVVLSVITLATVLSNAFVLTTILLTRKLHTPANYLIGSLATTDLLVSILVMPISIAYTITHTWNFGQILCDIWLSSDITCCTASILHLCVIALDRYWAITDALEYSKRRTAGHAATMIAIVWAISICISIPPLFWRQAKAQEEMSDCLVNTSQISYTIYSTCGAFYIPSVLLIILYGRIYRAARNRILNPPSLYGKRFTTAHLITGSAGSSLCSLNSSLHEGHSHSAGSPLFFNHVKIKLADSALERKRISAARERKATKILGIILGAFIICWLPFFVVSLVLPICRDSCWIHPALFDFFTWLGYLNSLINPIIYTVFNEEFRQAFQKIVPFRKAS

Series 1 — target: inorganic phosphate, free oxyanion; technique: microfluidic competitive inhibition; sample: in vitro, cell-free expressed; concentration: not given; reading: lower = stronger binding
Setting: derived from inhibition constants, unchanged parent 615000 nM
Starting sequence: PafA, mature enzyme, eGFP fusion (Elizabethkingia meningoseptica, UniProt Q9KJX5); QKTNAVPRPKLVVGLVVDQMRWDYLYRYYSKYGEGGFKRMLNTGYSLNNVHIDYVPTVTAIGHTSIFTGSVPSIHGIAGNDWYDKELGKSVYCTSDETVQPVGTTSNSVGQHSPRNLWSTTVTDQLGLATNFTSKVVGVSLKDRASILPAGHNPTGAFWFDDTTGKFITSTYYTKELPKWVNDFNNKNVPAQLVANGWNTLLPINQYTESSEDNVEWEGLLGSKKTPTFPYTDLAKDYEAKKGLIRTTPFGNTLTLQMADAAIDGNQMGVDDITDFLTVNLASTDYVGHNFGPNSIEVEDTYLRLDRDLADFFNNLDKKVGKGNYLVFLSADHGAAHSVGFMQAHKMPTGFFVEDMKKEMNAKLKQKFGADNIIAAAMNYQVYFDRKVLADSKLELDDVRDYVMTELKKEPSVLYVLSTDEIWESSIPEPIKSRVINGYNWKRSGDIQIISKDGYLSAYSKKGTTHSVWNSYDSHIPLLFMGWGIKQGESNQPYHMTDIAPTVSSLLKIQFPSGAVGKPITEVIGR
Variant	phosphate dissociation constant [µM]
E406V	648
L15G	882
I449V	613
N280V	509
R39V	493
G138A	547
Q206G	444
H337G	313

Series 2 — target: CCNF, cyclin fold, Cln2 fusion (human); technique: yeast growth competition, sequencing; sample: yeast; setting: strong parent motif; baseline: not given; reading: higher = stronger binding
Starting sequence: viral docking peptide; YKVKRRLVFGADD; partner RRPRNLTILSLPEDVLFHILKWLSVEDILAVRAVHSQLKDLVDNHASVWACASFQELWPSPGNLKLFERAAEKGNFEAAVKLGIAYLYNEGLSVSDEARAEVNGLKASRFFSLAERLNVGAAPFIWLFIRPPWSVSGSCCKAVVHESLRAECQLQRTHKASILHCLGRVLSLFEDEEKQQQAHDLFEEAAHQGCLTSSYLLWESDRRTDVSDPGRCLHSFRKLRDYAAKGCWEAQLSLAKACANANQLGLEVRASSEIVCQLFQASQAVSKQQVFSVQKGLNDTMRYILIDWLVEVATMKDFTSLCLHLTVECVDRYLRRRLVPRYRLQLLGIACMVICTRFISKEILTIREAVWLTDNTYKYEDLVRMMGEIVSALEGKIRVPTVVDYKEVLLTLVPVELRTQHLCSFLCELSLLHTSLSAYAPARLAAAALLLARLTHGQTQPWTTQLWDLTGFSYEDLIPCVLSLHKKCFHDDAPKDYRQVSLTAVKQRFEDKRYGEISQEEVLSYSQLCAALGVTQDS
Variant	normalised enrichment score
YKVKRRLVFGARD [D12R]	8.86
YKVQRRLVFGADD [K4Q]	8.53
YKVKRSLVFGADD [R6S]	8.53
YTVKRRLVFGADD [K2T]	8.56
YKVKRRLVVGADD [F9V]	5.49
YKVKVRLVFGADD [R5V]	5.28
YKVKRRLVFTADD [G10T]	8.1
YKVKRCLVFGADD [R6C]	8.32

Mixed results
Structure (SMILES)	target or system	test	test system	setting	how to read	endpoint	value
Cc1cc(C)c(C#N)c(N2C[C@@H]3CCN(C)[C@@H]3C2)n1	–	–	mouse, microsomes or S9	2 µM, 0.5 h	–	remaining compound	19.3%
CNC(=O)c1ccc(-c2cnn3ccc(C(=O)N(C)c4ccc(Cl)c(C(=O)OC)c4)cc23)cc1	Cryptosporidium parvum	–	neonatal calves	dose not given, day 2 post-treatment	direction not given	fecal consistency score	1 and 3 and 2
c1ccc(Cn2ccnc2)cc1	Sarcocystis neurona	parasite activity	–	10 µM, 96 h	–	activity class	inactive
CNC(=N)NCCC[C@H](NC(=O)[C@H](CC(C)C)NC(=O)NNC(=O)[C@H](Cc1ccccc1)NC(=O)[C@H](CO)NC(=O)[C@H](CC(N)=O)NC(=O)[C@@H](Cc1cccnc1)NC(=O)[C@H](N)Cc1ccc(O)cc1)C(=O)NCC(N)=O	5-hydroxytryptamine receptor 1D (HTR1D, Homo sapiens, UniProt P28221)	ligand displacement, radioligand	–	10 µM	–	inhibition	12.4%
Oc1cc(Cl)ccc1Oc1ccc(Cl)cc1Cl	Sarcocystis neurona	parasite activity	–	10 µM, 96 h	–	activity class	inactive
C[C@H](NC(=O)c1cnc2n1[C@](C)(Cc1ccc(C#N)cc1)C(=O)N2c1cc(Cl)c(F)c(Cl)c1)C(=O)NC1(c2ccccn2)CC1	Serine/threonine-protein kinase PknB (pknB, Mycobacterium tuberculosis, UniProt P9WI81)	cell-free assay, competition with immobilised ligand	–	1 µM	–	remaining binding	100%

For quick reference, copied from above (series 2):
Variant	normalised enrichment score
YTVKRRLVFGADD [K2T]	8.56
YKVKRRLVVGADD [F9V]	5.49
